Measurements pooled from the literature.
Compare with care: the assays were run in different laboratories. Several values in a cell are separate wells, animals, samples, runs or records. ± marks the error that the study gave.

CC[C@H](C)[C@H](NC(C)=O)C(=O)N[C@H]1CSSC[C@@H](C(=O)N[C@H](C(N)=O)[C@@H](C)O)NC(=O)[C@H](CCCNC(=N)N)NC(=O)[C@H](Cc2c[nH]cn2)NC(=O)[C@H](C)NC(=O)CNC(=O)[C@H](Cc2c[nH]c3ccccc23)NC(=O)[C@H](CC(=O)O)NC(=O)[C@H](CCC(N)=O)NC(=O)[C@H](Cc2ccc(O)cc2)NC(=O)[C@H](C(C)C)NC1=O
ΔG (Complement C3 (Homo sapiens, UniProt P01024); ITC; 25 °C; more negative = stronger binding): -8.6 kcal/mol

CC1(C)CCN(Cc2ccc(C(=O)NC[C@]3(O)CCCN(c4cc(NCc5ccccc5)ncn4)C3)c(O)c2)CC1
remaining activity (Histone-lysine N-methyltransferase SMYD3 (SMYD3, Homo sapiens, UniProt Q9H7B4); enzyme activity; 10 µM, with: 1 µM SAM): 88% and 92%

CNc1ccccc1C(=O)O[C@H]1C[C@H](n2cnc3c(N)ncnc32)O[C@@H]1COP(=O)(O)OP(=O)(O)O
dissociation rate constant (Unconventional myosin-Va (Gallus gallus, UniProt Q02440, D297C/G292C/I296C/S293C/V295G); stopped-flow FRET, linear fit intercept; 4 °C, with: EDTA 4 mM): 12.8 ± 0.41 s⁻¹

CSCC[C@H](NC(C)=O)C(=O)NCC(=O)NCC(=O)N[C@@H](CCC(=O)O)C(=O)N[C@@H](CC(C)C)C(=O)N[C@H](C(=O)N[C@H](C(=O)NCC(=O)N[C@@H](CC(C)C)C(=O)NCC(=O)N[C@@H](C)C(=O)N[C@@H](CC(C)C)C(=O)N[C@@H](CCCNC(=N)N)C(=O)N[C@@H](CCCNC(=N)N)C(=O)N[C@@H](CCCNC(=N)N)C(=O)N[C@@H](CCCCN)C(=O)N[C@@H](CCCNC(=N)N)C(=O)N[C@@H](CC(C)C)C(=O)N[C@@H](CC(C)C)C(=O)N[C@@H](CCC(=O)O)C(=O)N[C@@H](CCC(N)=O)C(=O)N[C@@H](CCC(=O)O)C(=O)N[C@@H](CCCCN)C(=O)N[C@@H](CCCNC(=N)N)C(N)=O)[C@@H](C)O)C(C)C
block time constant (Kcnma1 (Mus musculus, UniProt Q08460); ion current, blocker, inside-out patch clamp; 25 µM, +50 mV): 27 ms

Cc1ccc(OCC(=O)N[C@@H](Cc2cn(CCNC(=O)c3ccc(S[C@@H]4O[C@H](CO)[C@H](O)[C@H](O)[C@H]4O)cc3)nn2)C(=O)NCCO)cc1
binding stoichiometry (PA-I galactophilic lectin (lecA, Pseudomonas aeruginosa, UniProt Q05097); isothermal titration calorimetry; concentration not given): 0.8 ± 0.1

CNS(=O)(=O)Nc1nccc(Cc2c(C)c3ccc(Oc4ncccc4F)cc3oc2=O)c1F
remaining binding (Mitogen-activated protein kinase 9 (MAPK9, Homo sapiens, UniProt P45984); cell-free assay, competition with immobilised ligand; 1 µM): 20%

O=C(N[C@@H](Cc1coc2ccccc12)B(O)O)[C@@H]1C[C@H]2CC[C@@H]1O2
duration of maximal inhibition (Proteasome component C5/PSMB8 (Homo sapiens, UniProt P20618+P28062); mouse, U266B1 xenograft, tumour; oral, 10 and 30 mg/kg single): ≥ 24 h

CC[C@H](C)[C@H](NC(=O)[C@H](CCCNC(=N)N)NC(=O)NC[C@H](CCC(N)=O)NC(=O)NC[C@H](CC(C)C)NC(=O)NC[C@H](CCCNC(=N)N)NC(=O)NC[C@H](CCc1ccccc1)NC(=O)[C@H](CCCCN)NC(=O)[C@H](CCC(=O)O)NC(C)=O)C(=O)N[C@@H](C)C(N)=O
binding enthalpy (Histone chaperone ASF1A (Homo sapiens, UniProt Q9Y294); isothermal titration calorimetry; concentration not given, pH 7.5, 20 °C): -3.3 ± 0.1 kcal/mol

N=C(N)NCCC[C@H](NC(=O)[C@H](Cc1ccccc1)NC(=O)[C@@H]1CCCN1C(=O)[C@H](CO)NC(=O)[C@H](Cc1ccccc1)NC(=O)CNC(=O)[C@@H]1CCCN1C(=O)[C@@H]1CCCN1C(=O)[C@@H](N)CCCNC(=N)N)C(=O)O
Emax (B2 bradykinin receptor (Rattus norvegicus, UniProt P25023); inositol phosphate accumulation, agonist; primary rat trigeminal ganglion cells; with: Pro-Ile 200 µM): 58 ± 3 % above basal

Oc1ccc(CCC(O)CC(O)CCc2ccc(O)cc2)cc1 (stereo not shown)
inhibition (Amine oxidase [flavin-containing] A (Maoa, Rattus norvegicus, UniProt P21396); enzyme activity, inhibitor; 100 µg/mL, with: serotonin substrate): 33.2 ± 0.6%

A few entries again:
CNc1ccccc1C(=O)O[C@H]1C[C@H](n2cnc3c(N)ncnc32)O[C@@H]1COP(=O)(O)OP(=O)(O)O
dissociation rate constant (Unconventional myosin-Va (Gallus gallus, UniProt Q02440, D297C/G292C/I296C/S293C/V295G); stopped-flow FRET, linear fit intercept; 4 °C, with: EDTA 4 mM): 12.8 ± 0.41 s⁻¹
